Experimental data collected from several papers.
Numbered parts are unrelated; each lists some results of a single study. Changes are numbered by the printed parent chain.

Study 1
Target: ABI1, truncated, D143A, DHFR fusion (Arabidopsis thaliana)
Technique: DHFR PCA, deep sequencing
Matrix: yeast
Notes: methotrexate growth selection, single substitutions
With: (+)-ABA 58 µM
Reference: wild-type fitted maximum
Reading: higher = stronger binding
Starting sequence: PYL1, truncated, DHFR fusion (Arabidopsis thaliana); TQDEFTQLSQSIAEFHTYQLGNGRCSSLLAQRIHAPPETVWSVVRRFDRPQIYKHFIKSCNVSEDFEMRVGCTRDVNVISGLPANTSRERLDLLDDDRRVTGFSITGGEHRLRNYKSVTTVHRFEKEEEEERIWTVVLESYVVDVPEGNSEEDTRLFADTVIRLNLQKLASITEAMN; partner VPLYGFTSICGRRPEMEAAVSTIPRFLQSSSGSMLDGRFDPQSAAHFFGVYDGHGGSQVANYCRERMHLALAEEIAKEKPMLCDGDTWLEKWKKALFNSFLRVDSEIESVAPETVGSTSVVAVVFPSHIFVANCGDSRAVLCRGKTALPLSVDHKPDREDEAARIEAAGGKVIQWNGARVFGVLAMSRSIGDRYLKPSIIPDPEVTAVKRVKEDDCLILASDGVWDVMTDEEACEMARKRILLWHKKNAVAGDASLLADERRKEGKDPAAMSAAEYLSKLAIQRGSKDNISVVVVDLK
`E129G` — result for “relative binding score”: 93.8%.
`T39A` — result for “relative binding score”: 89.6%.
For `I105E`, “relative binding score” read -2.31%.
`A170Y` — result for “relative binding score”: -1.77%.

Study 2
Target: RNA binding protein fox-1 homolog 2, RRM domain, GST-SBP tag (RBFOX2, Homo sapiens, UniProt O43251-10, residues 100-194)
Technique: RNA Bind-n-Seq
Form: RNA
Matrix: in vitro
Concentration: 365 nM
Notes: natural RNA segment, single round, ends assumed
Reference: no-protein control
Reading: higher = stronger binding
Target sequence (chain): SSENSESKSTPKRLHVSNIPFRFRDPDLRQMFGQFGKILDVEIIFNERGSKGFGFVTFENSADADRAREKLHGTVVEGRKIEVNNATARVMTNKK
For `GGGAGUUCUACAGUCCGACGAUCGAUACAUUAGUACCUGAUUUCAUAUCUUACAUAUUUAUUUGAGCUGAACAUUAGUUUGUAGUGUAACUAUUAGUAAAAAUAGAGAAACACAGCAUACUGUUCAUUAAUAGUGGAAUUCUCGGGUGCCAA`, “RBNS enrichment (R)” read 0.345.
`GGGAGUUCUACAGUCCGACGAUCGCUGUGAUAAAUUUCAAAUUUGCAUAGCUUUUCAAUGUUUUGCUCUGCUCCCGCUCUUGCUUCAGAGUCGGCACACUCACCUGCAUUUGAGUUCUGUCUAUAGCCCAGCAUGGAAUUCUCGGGUGCCAA`: “RBNS enrichment (R)” 1.86.
`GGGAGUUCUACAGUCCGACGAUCUCAGUGCAGUUACAGACAUGCGUUUGAUUCCACAGUUUUGUUUCAUUUCAAAAGAAUUCCCCUCACAGGAGGAUGGCUGAGCAUCAAAGGAGGACAACCAUCUAUAACUUUGGAAUUCUCGGGUGCCAA` — result for “RBNS enrichment (R)”: 0.389.
Under “RBNS enrichment (R)”, `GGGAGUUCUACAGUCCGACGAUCUCUUUACGUUUGUACUGCUUACCUUUACUUUCUCCACAACAGAGACAAGCAGAUUGGUUGAACCUUAUUUAAUGAGGAGUAACAGGCUGUUUUUAAGUGUUUGCCUGUGGUGGAAUUCUCGGGUGCCAA` is recorded as 0.335.
`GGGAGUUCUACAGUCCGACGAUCUCUCUCCCCUCCAUCCCCUCCCCUGUUCUGAGAACCAGGUUAUCAGCCAAACAAGAAUCAGUUGAUCCCCUUGCACUUUGGACACUUCAAUGGAGCCUGAGCUGCUUAGAUGGAAUUCUCGGGUGCCAA` — result for “RBNS enrichment (R)”: 0.816.

Study 3
Target: CCNB2, cyclin fold, Cln2 fusion (human)
Technique: yeast growth competition, sequencing
Matrix: yeast
Notes: weak parent motif
Reference: not given
Reading: higher = stronger binding
Starting sequence: CDC42EP1 docking peptide (human); SLVVGKLSFDSSP; partner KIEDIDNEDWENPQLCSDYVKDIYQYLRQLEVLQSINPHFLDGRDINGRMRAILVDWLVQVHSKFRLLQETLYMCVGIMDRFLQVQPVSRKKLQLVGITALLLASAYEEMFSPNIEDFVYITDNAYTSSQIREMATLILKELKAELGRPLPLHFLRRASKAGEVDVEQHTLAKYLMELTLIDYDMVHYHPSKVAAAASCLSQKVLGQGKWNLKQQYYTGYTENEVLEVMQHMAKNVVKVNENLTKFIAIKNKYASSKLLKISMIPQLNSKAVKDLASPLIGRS
`D10A` — result for “normalised enrichment score”: -0.236.
Under “normalised enrichment score”, `G5A` is recorded as 0.326.
For `L7A`, “normalised enrichment score” read -0.239.
Under “normalised enrichment score”, `F9A` is recorded as -1.1.
`V3A` — result for “normalised enrichment score”: -0.516.
Under “normalised enrichment score”, `S1A` is recorded as -0.366.

Other studies, line by line
`PhoQ, residues 284 288 289 292 302 303 TASMAF` has a fold induction of 17.2 (PhoP, residues 12 14 15 18 19 VQGLL (Escherichia coli, UniProt P23836); Sort-seq, refers to: YFP reporter; E. coli; PhoQ-PhoP variant library, with: 10 µM Mg2+; reference: high Mg2+ state, higher = stronger signaling).

Some of these lines once more (study 3):
Under “normalised enrichment score”, `F9A` is recorded as -1.1.
`V3A` — result for “normalised enrichment score”: -0.516.
